Experimental data pooled from the literature.
Compare with care: the assays were run in different laboratories. Values joined by “and” are separate records of one study, mostly repeats; a detail may differ. ± gives the spread as reported.
UniProt P10632, sequence (whole entry, looked up): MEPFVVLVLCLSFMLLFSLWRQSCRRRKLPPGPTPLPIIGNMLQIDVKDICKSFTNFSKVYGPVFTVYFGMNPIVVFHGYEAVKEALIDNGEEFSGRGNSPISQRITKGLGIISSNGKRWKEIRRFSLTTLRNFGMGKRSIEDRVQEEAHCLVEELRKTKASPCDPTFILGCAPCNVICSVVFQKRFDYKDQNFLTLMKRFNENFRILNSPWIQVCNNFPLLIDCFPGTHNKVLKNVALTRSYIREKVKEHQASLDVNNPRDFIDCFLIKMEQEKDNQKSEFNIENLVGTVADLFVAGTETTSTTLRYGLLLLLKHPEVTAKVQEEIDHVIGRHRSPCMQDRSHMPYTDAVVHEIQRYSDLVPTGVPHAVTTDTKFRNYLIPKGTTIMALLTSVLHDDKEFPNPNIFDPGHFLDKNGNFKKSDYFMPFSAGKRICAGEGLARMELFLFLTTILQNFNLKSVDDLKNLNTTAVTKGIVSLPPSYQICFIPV
UniProt P08684, sequence (whole entry, looked up): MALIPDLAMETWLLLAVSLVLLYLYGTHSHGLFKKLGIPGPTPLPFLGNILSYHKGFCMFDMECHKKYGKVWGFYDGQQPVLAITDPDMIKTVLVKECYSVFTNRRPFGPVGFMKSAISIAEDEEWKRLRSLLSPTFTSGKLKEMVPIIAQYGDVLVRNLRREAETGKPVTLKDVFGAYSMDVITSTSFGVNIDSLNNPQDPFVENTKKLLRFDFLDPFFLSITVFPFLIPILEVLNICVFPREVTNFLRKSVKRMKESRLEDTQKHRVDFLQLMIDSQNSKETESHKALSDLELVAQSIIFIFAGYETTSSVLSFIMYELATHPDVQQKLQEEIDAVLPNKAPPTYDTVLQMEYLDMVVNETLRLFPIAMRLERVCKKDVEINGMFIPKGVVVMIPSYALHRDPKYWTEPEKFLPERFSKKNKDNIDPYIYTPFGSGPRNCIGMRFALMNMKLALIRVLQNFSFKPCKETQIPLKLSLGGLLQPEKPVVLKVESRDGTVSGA

N#C[C@@H]1CC(F)(F)CN1C(=O)CNC(=O)c1ccnc2c(NC(=O)[C@H](CCCCNC(=O)CCOCCOCCOCCOCCOCCOCCNC(=O)CN3CCN(CC(=O)[O-])CCN(CC(=O)[O-])CCN(CC(=O)[O-])CC3)NC(=O)CCCc3ccc(I)cc3)cccc12.[177Lu+3]  tracer uptake (U-87 MG tumour model; host not given, stomach; 48 h, tumour-bearing): 0.25 %ID/g
COc1cccc(OC)c1-c1cc(C(=O)NC2(C(=O)O)C3CC4CC(C3)CC2C4)nn1-c1ccc(C(=O)N(C)CCCN(C)CCCN(C)C(=O)[C@H](CCCCNC(=O)[C@H](CC(C)C)NC(=O)C2OC2C(=O)O)NC(=O)CN2CCN(CC(=O)[O-])CCN(CC(=O)[O-])CCN(CC(=O)[O-])CC2)cc1C(C)C.[177Lu+3] (mixture of isomers)  tracer uptake (HT-29 tumour model; host not given, blood; 72 h, tumour-bearing): 0.3 %ID/g
N#C[C@@H]1CCCN1C(=O)CNC(=O)c1ccnc2ccc(OCCCN3CCN(C(=O)CCc4ccc(O)c(CN5CCN6CC(=O)[O][Al-]([18F])([O]C(=O)C5)[O]c5ccc(CCC(=O)N7CCN(CCCOc8ccc9nccc(C(=O)NCC(=O)N%10CCC[C@H]%10C#N)c9c8)CC7)cc5C6)c4)CC3)cc12 (stereo partly shown)  tracer uptake (U-87 MG tumour model; host not given, stomach; 1 h, tumour-bearing): 2.51 %ID/g
CN1CCCNC(=O)c2cccc(c2)C(=O)NCCCN(C)CCCNc2cccc3c2C(=O)c2cccc(c2C3=O)NCCC1  viability (HSC-2; cell growth or viability, CCK-8; 0.5 µM, 48 h): 72.5%
O=C(O)CCCOc1ccc(O)cc1-c1cc(-c2ccccc2C(F)(F)F)n(-c2ccccc2)n1  beat rate (human iPSC-derived cardiomyocytes; 0.2 µM): 45.3 ± 2.6 min⁻¹
CC(C)OCCOCc1ccc(OCC(O)CN(N=O)C(C)C)cc1 (stereo not shown)  revertant fold increase (Salmonella typhimurium; Ames test; TA1537; 15.8 µg/plate, 30 % hamster S9; baseline: solvent control): 0.9 fold
N#C[C@@H]1CC(F)(F)CN1C(=O)CNC(=O)c1ccnc2c(NC(=O)[C@@H](N)CCCCNC(=O)CCOCCOCCOCCOCCOCCOCCNC(=O)CN3CCN(CC(=O)[O-])CCN(CC(=O)[O-])CCN(CC(=O)[O-])CC3)cccc12.[177Lu+3]  tracer uptake (U-87 MG tumour model; host not given, liver; 1 h, tumour-bearing): 0.47 %ID/g
O=C(Nc1cnccc1-c1ccc([18F])nc1)c1ccnc(NC(=O)C2CC2)c1  SUV (ex vivo gamma counting; GSK-3β transgenic mice, early-stage, bladder; intravenous, 120 min, mean, P-gp inhibitor pretreatment, added: tariquidar 15 mg/kg iv): 2.75
CC(C)Cc1ccc(C(C)C(=O)N[C@@H](CCCCNC(=O)CCOCCOCCOCCOCCOCCOCCNC(=O)CN2CCN(CC(=O)[O-])CCN(CC(=O)[O-])CCN(CC(=O)[O-])CC2)C(=O)Nc2cccc3c(C(=O)NCC(=O)N4CC(F)(F)C[C@H]4C#N)ccnc23)cc1.[177Lu+3] (stereo partly shown)  tracer uptake (U-87 MG tumour model; host not given, blood; 48 h, tumour-bearing): 0.15 %ID/g
COC(=O)Nc1nc2cc(C(O)c3ccc(F)cc3)ccc2[nH]1 (stereo not shown)  revertants (Salmonella typhimurium; Ames preincubation test; TA100; 875.0 µg per plate, 3 days, without S9, precipitation): 150 revertants per plate
O=C1NC2(CC2)COc2ncc(F)cc2[C@H]2COCCN2c2ccn3ncc1c3n2  revertant colonies (Salmonella typhimurium; Ames test; TA98; 1500 µg/plate, 48 h, added: without S9): 13 ± 6 revertants/plate
C=C(NC(=O)c1csc(-c2nc3c(cc2O)-c2nc(cs2)C(=O)NC(C(C)O)C(=O)NC(=C(C)OC)c2nc(cs2)C(=O)NC2c4nc(cs4)C(=O)NC(COC(=O)c4c5c6c(cccc6n4O)COC(=O)C(OC4CC(C)(O)C(N(C)C)C(C)O4)C2OC5)c2nc-3cs2)n1)C(N)=O (stereo not shown)  AUC(0-inf) (female Sprague-Dawley rats, plasma; intravenous infusion, 2 mg/kg): 934 ng·h/mL
Cc1nc2cccc(OCC(C)(C)C(=O)NC(C)C)c2c(N)c1C(=O)[O-].[Na+]  relative mitotic index (human peripheral blood lymphocytes; 250 g/mL, 20 h, without S9): 108%
CC(C)(C)NCC(SS(=O)(=O)O)c1ccccc1 (stereo not shown)  body weight (Schistosoma mansoni; perfusion day 44; infected Swiss Webster mice; 600 mg/kg single dose, dosed day 15 post-infection): 33.8 g and 31.2 g and 30.7 g and 34.2 g
O=C(Nc1cnccc1-c1ccc([18F])cc1)c1ccnc(NC(=O)C2CC2)c1  SUV (FVB/NJ mouse, both sexes, brain; intravenous, 4 min post-injection, added: P-gp inhibitor tariquidar 15 mg/kg iv): 0.81 ± 0.28
CNC(=O)C1CCCN(C(=O)C2CC3CCC2N3C(=O)[C@@H]2C[C@@H](O)CN2C(=O)NCc2cccc(Cl)c2F)C1 (mixture of isomers)  remaining activity (Cytochrome P450 2C8 (CYP2C8, Homo sapiens, UniProt P10632); preincubation with NADPH; human; 16.7 µM; baseline: negative control): 67.4% and 80.6% and 82.9%
N#C[C@@H]1CCCN1C(=O)CNC(=O)c1ccnc2ccc(OCCCN3CCN(C(=O)CCc4ccc5c(c4)CN4CCN(Cc6cc(CCC(=O)O)ccc6O)CC(=O)[O][Al-]([18F])([O]C(=O)C4)[O]5)CC3)cc12 (stereo partly shown)  tracer uptake (U-87 MG tumour model; host not given, liver; 1 h, tumour-bearing): 1.6 %ID/g
CC(C)(O)c1ncc([S@](N)(=O)=NC(=O)Nc2c3c(cc4c2CCC4)CCC3)s1  share of subjects with TEAEs (measured: nervous system disorders; healthy human subjects; oral, dose not given, 14 days, all active doses): 30%
C1=Cc2ccccc2N(Cc2cc(-c3ccc(OCc4ccccc4)cc3)no2)c2ccccc21  IC50 (BJ; cytotoxicity): > 30 µM
Nc1nc2cc(C(=O)c3ccc(F)cc3)ccc2[nH]1  revertants per plate (Salmonella typhimurium; Ames preincubation test; TA98; 625.0 µg/plate, 3 days, without S9): 17.7 revertants/plate
O=C(CN1CN(c2ccc(Cl)c(Cl)c2)C2(CCN(C(=O)c3ccc4[nH]ncc4c3)CC2)C1=O)NCC(F)(F)F  IC50 (Cytochrome P450 3A4 (CYP3A4, Homo sapiens, UniProt P08684); enzyme activity, inhibitor): 22 µM
C=CC(=O)Nc1cc(Nc2nccc(-c3cn(C)c4ccccc34)n2)c(OCC(F)(F)F)nc1N(C)CCN(C)C  fold induction (human hepatocytes lot LTG; CYP1A2 enzyme activity, inducer; 1 µM; baseline: DMSO): 5.23
COc1cccc(OC)c1-c1cc(C(=O)NC2(C(=O)O)C3CC4CC(C3)CC2C4)nn1-c1ccc(C(=O)N(C)CCCN(C)C(=O)[C@H](CCCCNC(=O)[C@H](CC(C)C)NC(=O)C2OC2C(=O)O)NC(=O)CN2CCN(CC(=O)[O-])CCN(CC(=O)[O-])CCN(CC(=O)[O-])CC2)cc1C(C)C.[177Lu+3] (mixture of isomers)  tracer uptake (HT-29 tumour model; host not given, bone; 7 days, tumour-bearing): 0.03 %ID/g
CCN(CC)CC#CCNc1ccnc2cc(Cl)ccc12  revertants (Salmonella typhimurium; mini-Ames test; TA1535; 1000.0 µg/well, with rat liver S9): 1 revertants/well
O=C1C2CC3CC1CC(C(=O)N1CCN(c4ccc([N+](=O)[O-])c5ncccc45)CC1)(C3)C2  mean revertant colonies (Salmonella typhimurium; Ames test; TA1535; 0.78 µg/well, with S9): 3 colonies/well

A few entries again:
N#C[C@@H]1CC(F)(F)CN1C(=O)CNC(=O)c1ccnc2c(NC(=O)[C@H](CCCCNC(=O)CCOCCOCCOCCOCCOCCOCCNC(=O)CN3CCN(CC(=O)[O-])CCN(CC(=O)[O-])CCN(CC(=O)[O-])CC3)NC(=O)CCCc3ccc(I)cc3)cccc12.[177Lu+3]  tracer uptake (U-87 MG tumour model; host not given, stomach; 48 h, tumour-bearing): 0.25 %ID/g
COc1cccc(OC)c1-c1cc(C(=O)NC2(C(=O)O)C3CC4CC(C3)CC2C4)nn1-c1ccc(C(=O)N(C)CCCN(C)CCCN(C)C(=O)[C@H](CCCCNC(=O)[C@H](CC(C)C)NC(=O)C2OC2C(=O)O)NC(=O)CN2CCN(CC(=O)[O-])CCN(CC(=O)[O-])CCN(CC(=O)[O-])CC2)cc1C(C)C.[177Lu+3] (mixture of isomers)  tracer uptake (HT-29 tumour model; host not given, blood; 72 h, tumour-bearing): 0.3 %ID/g
